Literature values, collected from citations in different studies.
Compare with care: the assays were run in different laboratories. ± gives the spread as reported. Non-standard residues stand in square brackets, D forms with d. Where no end group is shown, it is not given here. No end group written: not given here.
B1: disulfide; chain KPCTKLSKGWRGLCAPHKCSSYCIHHEGAYHGACLKNRHSKHYGCYCYYRHC (disulfide (positions not given here))
B2: cyclic, D-amino acids, lariat; chain T[dL]S[dD]GS (also: lariat or depsi (positions not given here))
Chain of UniProt P04191 (whole entry, looked up): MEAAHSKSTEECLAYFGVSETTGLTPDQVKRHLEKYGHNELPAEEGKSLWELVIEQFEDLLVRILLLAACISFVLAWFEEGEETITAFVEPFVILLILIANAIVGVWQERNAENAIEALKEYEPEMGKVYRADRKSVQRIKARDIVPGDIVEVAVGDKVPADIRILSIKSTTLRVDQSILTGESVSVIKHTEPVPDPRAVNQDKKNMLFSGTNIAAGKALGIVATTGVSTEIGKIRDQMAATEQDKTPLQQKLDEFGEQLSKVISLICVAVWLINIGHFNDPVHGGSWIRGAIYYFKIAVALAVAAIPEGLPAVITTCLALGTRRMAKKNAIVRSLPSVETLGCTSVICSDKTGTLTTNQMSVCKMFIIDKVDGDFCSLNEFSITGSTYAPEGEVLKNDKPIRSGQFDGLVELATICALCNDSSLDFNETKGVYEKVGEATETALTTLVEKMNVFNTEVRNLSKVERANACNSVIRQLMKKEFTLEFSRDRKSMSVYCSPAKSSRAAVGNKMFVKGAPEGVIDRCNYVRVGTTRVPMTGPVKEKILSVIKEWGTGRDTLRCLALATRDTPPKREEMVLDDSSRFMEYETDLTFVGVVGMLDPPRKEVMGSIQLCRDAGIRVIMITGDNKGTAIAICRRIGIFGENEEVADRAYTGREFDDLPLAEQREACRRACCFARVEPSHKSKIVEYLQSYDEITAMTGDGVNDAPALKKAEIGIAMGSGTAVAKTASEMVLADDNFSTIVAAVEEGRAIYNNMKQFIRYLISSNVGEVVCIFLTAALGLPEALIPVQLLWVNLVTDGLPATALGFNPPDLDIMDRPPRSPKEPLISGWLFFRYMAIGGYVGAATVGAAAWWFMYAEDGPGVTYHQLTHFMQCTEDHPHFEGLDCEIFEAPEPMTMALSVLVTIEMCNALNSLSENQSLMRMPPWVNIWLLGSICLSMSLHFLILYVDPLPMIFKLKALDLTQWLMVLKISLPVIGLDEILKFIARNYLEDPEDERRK

Substance | target or system | test | test system | setting | scale | quantity | value
DPDPE | human opioid receptor MOP | binding |  |  |  | Ki | > 10 µM
capreomycin | Mycobacterium tuberculosis |  |  | several weeks |  | 99% growth inhibitory concentration | 75 µM
cathelicidin-BF | Escherichia coli |  |  |  |  | MIC | 27 µg/mL
cyclopropyl methoxycarbonyl metomidate | Xenopus laevis | loss of righting reflex |  | tadpoles |  | EC50 | 2.6 µM
YRQSMNNFQGLRSFGCRFGTCTVQKLAHQIYQFTDKDKDNVAPRSKISPQGY (biotin-labelled) |  |  | rat, plasma |  |  | half-life | 0.25 h
human CCL11 | CCR3 D18A mutant |  |  |  |  | IC50 | 0.00807 µM
TFELQGVVPRGVNL (V29F) | Prothrombin (F2, Bos taurus, UniProt P00735) | substrate, HPLC | peptide |  |  | kcat | 6.2 ± 0.4 s⁻¹
capreomycin | Mycobacterium tuberculosis |  | H37Ra | literature value |  | MIC | 8 µg/mL
FFFHIIHHIFHLIRRLLHRIRRRRRRHR | Escherichia coli |  | peptide |  |  | MIC | > 128 µM
neurotensin | NTS1 deletion of residues 45-60 |  |  | concentration not given | reference: wild type | binding affinity decrease | 3000 fold
phospholamban | ATP2A1 (Oryctolagus cuniculus, UniProt P04191) | enzyme activity |  |  |  | Vmax | 6.1 ± 0.1 µmol/min/mg
GTVLCCETCFLLSCCKIGCTCTRVV | Escherichia coli |  | peptide |  |  | MIC | 64 µM
buforin II | Pseudomonas aeruginosa |  | ATCC 27853 | literature value |  | MIC | 100 µM
AEQNPIYWARYADWLFTTPLLLLDLALLVDADEGT (pHLIP (Halobacterium salinarum)) |  | NMR, measured: Asp14 | peptide, lipid membrane | numbering of the source |  | pKa | 5.8
YCAQTGCTVNWGRCWGCIGNNSGANYATGGKSGV | Pseudomonas aeruginosa |  | peptide |  |  | MIC | 8 µM
B1 | Botrytis cinerea | growth |  |  |  | MIC | 1.5 µM
abciximab |  |  | human, percutaneous coronary intervention patients | dose not given |  | patients with anti-drug antibodies | 4.8%
VTATNAFNCRKERGFCRFGGCPFPLIHIGKCGPA | Pseudomonas aeruginosa |  | peptide |  |  | MIC | 128 µM
rat amylin | AMY1 receptor, RAMP1 W84A |  |  |  | reference: wild type | potency decrease | 15 fold
pegcetacoplan | bacteria |  |  | concentration not given, without S9 activation |  | Ames reverse mutation | negative
B2 | Mycobacterium bovis |  | BCG |  |  | MIC | 44.4 µM
VVIA | Aβ42-induced neurotoxicity | inhibitor, MTT reduction | peptide, differentiated PC-12 |  |  | IC50 | 16 ± 5 µM
GSGCCGQGSCCGRWSGMKNIRVLWCGGCC | Pseudomonas aeruginosa |  | peptide |  |  | MIC | 32 µM
bevacizumab |  |  | patients with recurrent glioblastoma | dose not given, CheckMate-143 trial |  | median overall survival | 10 months
maraviroc |  |  | human, HIV infected | 300 mg twice daily |  | HIV RNA decay rate | -0.58 ± 0.12 day⁻¹
omiganan | Salmonella typhimurium |  | SL1344 |  |  | MIC | 25 µM
Polymyxin B |  |  | mouse | dosed every 8 h |  | maximum tolerated dose | 25 mg/kg
LSPAVIASLVG-NH2 (C-amide) | ion channel complex, PPK1, PPK26 | agonist | peptide |  |  | EC50 | 0.113 µM
melittin | Salmonella typhimurium |  | SL1344 |  |  | MIC | 6.3 µM
enfortumab vedotin |  |  | rat |  |  | half-life | 24 to 32 h

For quick reference, copied from above:
Substance | target or system | test | test system | setting | scale | quantity | value
melittin | Salmonella typhimurium |  | SL1344 |  |  | MIC | 6.3 µM
enfortumab vedotin |  |  | rat |  |  | half-life | 24 to 32 h
